Measured values pooled from the literature.
Compare with care: the assays were run in different laboratories. Values joined by “and” are separate records of one study, mostly repeats; a detail may differ. Numbers after ± are the reported error. ≈ marks a conversion by molar mass, not a printed value.
GBA1 R534H: Lysosomal acid glucosylceramidase (GBA1, Homo sapiens, UniProt P04062, R534H)
Sequence of UniProt P04062 (whole entry, unmodified, looked up): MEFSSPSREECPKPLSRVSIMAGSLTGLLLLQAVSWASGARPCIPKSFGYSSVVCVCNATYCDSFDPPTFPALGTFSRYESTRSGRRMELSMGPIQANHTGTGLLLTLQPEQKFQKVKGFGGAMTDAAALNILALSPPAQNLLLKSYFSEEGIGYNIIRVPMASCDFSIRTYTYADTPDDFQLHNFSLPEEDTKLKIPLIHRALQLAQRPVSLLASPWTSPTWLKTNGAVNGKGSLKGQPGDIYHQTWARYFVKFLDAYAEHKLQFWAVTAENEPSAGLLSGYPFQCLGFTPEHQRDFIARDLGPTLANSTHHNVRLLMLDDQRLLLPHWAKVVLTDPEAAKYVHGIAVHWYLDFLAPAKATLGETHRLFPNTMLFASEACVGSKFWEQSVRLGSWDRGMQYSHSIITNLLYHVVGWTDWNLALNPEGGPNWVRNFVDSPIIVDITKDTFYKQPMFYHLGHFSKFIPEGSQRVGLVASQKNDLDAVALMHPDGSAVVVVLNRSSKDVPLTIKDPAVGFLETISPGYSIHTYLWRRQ

Compound = CN1CCCNC(=O)c2cccc(c2)C(=O)NCCCN(C)CCCNc2cccc3c2C(=O)c2cccc(c2C3=O)NCCC1; tested on = SAS; test = RNA-Seq, measured: DPH5 mRNA; setting = 1 µM, 6 h; how to read = relative to: untreated cells; endpoint = log2 fold change; result = 0.643
Compound = [BH3-][P+]1(c2ccccc2)CCCCC1; tested on = PC-3; test = MTT; setting = 72 h; how to read = relative to: IC50 HaCaT over IC50 PC-3; endpoint = selectivity index; result = 2.7
Compound = COc1ccccc1-c1ccncc1C(=O)Nc1nnc(OCc2ccc(Cl)cc2)s1; tested on = U2OS EJ2-GFP; test = EJ2-GFP reporter, GFP+/dsRed+ ratio; setting = 15 µM, added: I-SceI transfection; how to read = relative to: DMSO; endpoint = change in MMEJ frequency; result = 9.6% and 13% and 5.7%
Compound = COc1cccc(O)c1C(=O)/C=C/c1ccc2cc(N3CCCC3)ccc2c1; tested on = HK-2; test = Nrf2 target genes, measured: HO-1, NQO1, GCLC, GCLM; setting = concentration not given; endpoint = mRNA level; result = increased
Compound = CCC(=CCc1c(O)cc2c(c1O)C(=O)CC(c1ccc(O)cc1)O2)CC (stereo not shown); tested on = HeLa; test = flow cytometry; setting = 12 µM, 48 h; endpoint = active caspase-3 cells; result = 3.85 ± 0.13%
Compound = COC(=O)c1cc(NC2=NC(=O)C(=Cc3ccc(C)cc3)S2)ccc1OC(C)=O; tested on = MCF7; test = GC-MS, measured: Oxalic acid; setting = 1 µM; how to read = relative to: DMSO; endpoint = metabolite level; result = 0.81 fold change
Compound = Cc1cc(NC2CCN(C)CC2)ccc1-c1cc2c(N3CCC[C@H](C(=O)N[C@H](C)c4ccccc4)C3)ncnc2[nH]1; tested on = KARPAS-299; test = cell growth or viability, MTT; setting = 0.2 µg/mL, 72 h; endpoint = inhibition; result = 68.8%
Compound = CC(C)c1ccc(N(C)c2ccc3c(c2)OCC[C@H]3CNc2cnccc2C(=O)O)cc1; tested on = IMR-90 normal fibroblast; test = cell proliferation; setting = 168 h; endpoint = IC50; result = > 1000 nM
Compound = Cn1ncc2cc(-c3cncc(Cl)c3N3CCC4(CCNC4=O)CC3)ccc21; tested on = LS174T; test = gene expression, microarray, measured: ARRDC3 mRNA; setting = concentration not given, 24 h; how to read = relative to: untreated cells; endpoint = log2 fold change; result = 2.3
Compound = C=C1C(=O)OC2C1CCC(C)(O)C13C=CC(C)(C21)C1(C3)C(=O)OC2C3C(C)C(=O)CC3C(=C)CC(OC(C)=O)C21 (stereo not shown); tested on = AML12; test = Western blot, measured: FoxO1; setting = concentration not given, added: palmitate/oleate; endpoint = nuclear protein level; result = increased
Compound = O=C(CCCCCN1C[C@H](O)[C@@H](O)[C@H](O)[C@H]1CO)NC12CC3CC(CC(C3)C1)C2; tested on = GBA1 R534H; test = inhibitor, 4MU-β-D-glucopyranoside; setting = added: 4MU-β-D-glucopyranoside; endpoint = IC50; result = 500 nM
Compound = COc1ccc(N(c2ccccc2)S(=O)(=O)C2CC3OC2C(c2ccc(O)cc2)=C3c2ccc(O)cc2)cc1 (stereo not shown); tested on = MCF7 3xERE-luc, steroid-deprived; test = ERE luciferase reporter, agonist; how to read = relative to: vehicle; endpoint = Emax; result = -6.8%
Compound = COc1c(C)c(O)c(C(=O)C=Cc2ccccc2)c(OC)c1C; tested on = FaDu; test = SRB; how to read = relative to: normal over FaDu IC50; endpoint = selectivity index; result = 1.02
Compound = CCCCCCCCCCCC(=O)N[C@@H](CO)C[C@@H](O)c1cccc(CCCCCC)c1; tested on = HeLa; test = CERT activity, HPLC-MS/MS lipidomics, measured: ceramide 16; setting = 1 µM, 24 h, not cell-number normalised; endpoint = ceramide level; result = 29100 pmol/sample and 33100 pmol/sample and 29700 pmol/sample
Compound = COc1cc(N2CCN(C(=O)CCOCCNC(=O)[C@@H]3CCCN3)CC2)ccc1Nc1ncc(Cl)c(Nc2ccccc2P(C)(C)=O)n1; tested on = NCI-H3122; test = flow cytometry; setting = 500 nM, 24 h; endpoint = G1 phase cells; result = 60%
Compound = C=C1C(=O)OC2C1CCC(C)(O)C13C=CC(C)(C21)C1(C3)C(=O)OC2C3=C(C)CC(O)C3C(=C)CC(OC(=O)C(C)=CC)C21 (stereo not shown); tested on = AML12 mouse hepatocytes; test = lipid accumulation, Nile Red staining; setting = maximum safe concentration, 24 h, added: palmitic acid/oleic acid; endpoint = maximum inhibition; result = 21.1 ± 3.24%
Compound = CO[C@@H]1[C@@H](OC(N)=O)[C@@H](O)[C@H](Oc2ccc3c(O)c(NC(=O)c4ccc(O)c(CC=C(C)C)c4)c(=O)oc3c2C)OC1(C)C; tested on = HCT-116 parental; setting = 75 µM, replicate 2; endpoint = colony count; result = 18.5
Compound = COC(=O)c1cc(NC2=NC(=O)C(=Cc3ccc(N(C)C)cc3)S2)ccc1OC(C)=O; tested on = MCF7; test = GC-MS, measured: Phosphorylethanolamine; setting = 1 µM; how to read = relative to: DMSO; endpoint = metabolite level; result = -0.65 fold change
Compound = CCOC(=O)C1CCCN(Cc2ccc(-c3ccccc3)cc2)C1 (stereo not shown); tested on = Trypanosoma cruzi; test = reporter mRNA translation, inhibitor, measured: Renilla luciferase mRNA; system = cell-free extract; setting = concentration not given, test 2; how to read = relative to: positive over negative control; endpoint = translation activity; result = 106% and 111%
Compound = COc1ccc2c(c1)OC1=C(C(=O)CCC1)C2c1c[nH]c2ccccc12 (stereo not shown); tested on = 3T3-L1; test = cell growth or viability, MTT; setting = 72 h; endpoint = IC20; result = 76.1 µg/mL (≈ 220 µM)
Compound = Cc1ncsc1-c1ccc(C(C)NC(=O)C2CC(O)CN2C(=O)C(NC(=O)CCCCCCCCCCN2CCCC(Nc3ncc(Cl)c(Nc4ccccc4S(=O)(=O)C(C)C)n3)C2)C(C)(C)C)cc1 (stereo not shown); tested on = 22Rv1; test = RNA-seq, measured: PHLDA1 mRNA; setting = concentration not given; how to read = relative to: DMSO; endpoint = log2 fold change; result = -1.15
Compound = O=C(N1CCCC1)n1cc(-c2ccc(-c3ccccc3)cc2)nn1; tested on = mouse T cells; test = N-terminal labelling proteomics, measured: Ccdc97 N-terminal peptide; setting = 0.001 µM, 6 h; how to read = relative to: DMSO; endpoint = SILAC ratio per peptide; result = 1.02 and 1.26 and 1.33
Compound = CCCCCCCCCC(=O)[O][Pt]([Cl])([Cl])[O]C(=O)CCCCCCCCC.N.N; tested on = A549/DDP cisplatin-resistant; setting = added: survivin siRNA transfection; how to read = relative to: non-transfected over transfected; endpoint = IC50 fold reduction; result = 1.46 fold
Compound = COc1ccc(NC(=O)c2ccc3[nH]c(-c4ccc(N(C)C)cc4)nc3c2)cn1; tested on = HCT-116; setting = 6 h, unit not given; how to read = relative to: DMSO; endpoint = extracellular ATP; result = 2.91
Compound = CC[C@H]1CN([C@@H](CC)c2ccc(C(F)(F)F)cc2)[C@H](CC)CN1c1nc(=O)n(C)c2ccc(C#N)nc12; tested on = mouse naive OT-1 CD8+ T cells; test = T-cell proliferation; setting = 4 days, added: BMDCs cross-presenting OVA; endpoint = EC50; result = 15 nM
Compound = COc1ccc2c(c1)c(CC(=O)[Se]CC(=O)Nc1cccc(C(F)(F)F)c1)c(C)n2C(=O)c1ccc(Cl)cc1; tested on = NCI60 CNS cancer panel; test = five-dose screen; endpoint = GI50; result = 1820 nM
Compound = CN(C)c1ccc(-n2cc(COC(=O)[C@@]3(C)C=C(C(=O)OC(C)(C)C)C(=O)CC3)nn2)cc1; tested on = HeLa; test = quantitative western blot; setting = concentration not given, 15 (unit not given), added: EGF; endpoint = pRSK/tubulin ratio; result = 0.219
Compound = Cc1cc(Cl)cc(-c2ccnc3cc(CN4C(=O)C5C(C4=O)C5(C)C)sc23)c1C[C@@H]1CNCCO1 (stereo partly shown); tested on = CHP-212 parental; test = annexin V/PI flow cytometry; setting = 1 µM, 48 h; endpoint = viable cells; result = 33.1% and 47.4% and 42.6%
Compound = CNS(=O)(=O)Nc1nccc(Cc2c(C)c3ccc(Oc4ncccc4F)cc3oc2=O)c1F; tested on = SNU-C1; test = cell viability; setting = 7 days; endpoint = IC50; result = 28.2 nM
Compound = CC1CCc2c(sc(NC(=O)Cn3cnc([N+](=O)[O-])n3)c2C(N)=O)C1 (stereo not shown); tested on = Trypanosoma cruzi; test = reporter mRNA translation, inhibitor, measured: capped polyadenylated Renilla luciferase mRNA; system = cell-free extract; setting = concentration not given; how to read = relative to: control RNA; endpoint = relative translation; result = 121%
Compound = CCOc1cncc(-c2ccc(NC(=O)C3(c4ccnc(NS(=O)(=O)C5CC5)n4)CCOCC3)nc2)n1; tested on = colon cancer; test = cell viability, CellTiter-Glo; system = DMSO 0.1%; setting = 72 h, line code 1103; endpoint = IC50; result = 64 nM
Compound = CCN(CC)CC(=O)Nc1cccc(-n2cc(-c3ccc4ccc(-c5cn(-c6cccc(NC(=O)CN(CC)CC)c6)nn5)cc4c3)nn2)c1; tested on = RCC4; test = PCR array, measured: HGF; setting = 5 x IC50, 6 h, normoxia; how to read = relative to: untreated; endpoint = fold regulation; result = 1.06
Compound = C=C1C[C@]2(C(=O)OC)C=C(C(=O)Nc3cccc(C(=O)Nc4ccc(Nc5nccc(-c6cccnc6)n5)c(C)c4)c3)C(=O)[C@H]1C2; tested on = HEK293 AP1 reporter cells; test = AP-1 reporter gene, inhibitor; setting = 3 µM, 6 h, unit not given, added: PMA; how to read = relative to: PMA alone; endpoint = reporter activity; result = 0.582
Compound = COc1cccc(OC)c1-c1cc(C(=O)NC2(C(=O)O)C3CC4CC(C3)CC2C4)nn1-c1ccc(C(=O)N(C)CCCN(C)C(=O)[C@H](CCCCNC(=O)[C@H](CC(C)C)NC(=O)C2OC2C(=O)O)NC(=O)CN2CCN(CC(=O)[O-])CCN(CC(=O)[O-])CCN(CC(=O)[O-])CC2)cc1C(C)C.[177Lu+3] (mixture of isomers); tested on = HT-29; setting = concentration not given, 30 min; how to read = relative to: added activity; endpoint = internalized fraction; result = 4.2 ± 0.23%
Compound = OC[C@@H]1[C@@H](O)[C@H](O)[C@@H](O)CN1CC(F)(F)CCCOCc1ccc(-c2ccccc2)cc1; tested on = GBA1 R534H; test = inhibitor, 4MU-β-D-glucopyranoside; setting = added: 4MU-β-D-glucopyranoside; endpoint = IC50; result = 130 nM
Compound = O=S(=O)(c1ccc2c(c1)OCO2)n1cc(CCCCN2CCC(=C(c3ccc(F)c(F)c3)c3ccc(F)c(F)c3)CC2)nn1; tested on = B16-F10-luc2; test = TMT proteomics, measured: RhoA, THUMPD3, S100A11, STMN2, SRGAP2; setting = 5 µM, 2 h; endpoint = protein abundance; result = decreased
Compound = Cc1ccc(-n2cc(CSc3nc4ccccc4n3Cc3cn(-c4ccc(C)cc4)nn3)nn2)cc1; tested on = HEK293; test = MTT; setting = 62.5 ppm; endpoint = cytotoxicity; result = 70.6%

For quick reference, copied from above:
Compound = CC1CCc2c(sc(NC(=O)Cn3cnc([N+](=O)[O-])n3)c2C(N)=O)C1 (stereo not shown); tested on = Trypanosoma cruzi; test = reporter mRNA translation, inhibitor, measured: capped polyadenylated Renilla luciferase mRNA; system = cell-free extract; setting = concentration not given; how to read = relative to: control RNA; endpoint = relative translation; result = 121%
Compound = CCOc1cncc(-c2ccc(NC(=O)C3(c4ccnc(NS(=O)(=O)C5CC5)n4)CCOCC3)nc2)n1; tested on = colon cancer; test = cell viability, CellTiter-Glo; system = DMSO 0.1%; setting = 72 h, line code 1103; endpoint = IC50; result = 64 nM
Compound = CCN(CC)CC(=O)Nc1cccc(-n2cc(-c3ccc4ccc(-c5cn(-c6cccc(NC(=O)CN(CC)CC)c6)nn5)cc4c3)nn2)c1; tested on = RCC4; test = PCR array, measured: HGF; setting = 5 x IC50, 6 h, normoxia; how to read = relative to: untreated; endpoint = fold regulation; result = 1.06
Compound = C=C1C[C@]2(C(=O)OC)C=C(C(=O)Nc3cccc(C(=O)Nc4ccc(Nc5nccc(-c6cccnc6)n5)c(C)c4)c3)C(=O)[C@H]1C2; tested on = HEK293 AP1 reporter cells; test = AP-1 reporter gene, inhibitor; setting = 3 µM, 6 h, unit not given, added: PMA; how to read = relative to: PMA alone; endpoint = reporter activity; result = 0.582
Compound = COc1cccc(OC)c1-c1cc(C(=O)NC2(C(=O)O)C3CC4CC(C3)CC2C4)nn1-c1ccc(C(=O)N(C)CCCN(C)C(=O)[C@H](CCCCNC(=O)[C@H](CC(C)C)NC(=O)C2OC2C(=O)O)NC(=O)CN2CCN(CC(=O)[O-])CCN(CC(=O)[O-])CCN(CC(=O)[O-])CC2)cc1C(C)C.[177Lu+3] (mixture of isomers); tested on = HT-29; setting = concentration not given, 30 min; how to read = relative to: added activity; endpoint = internalized fraction; result = 4.2 ± 0.23%
Compound = OC[C@@H]1[C@@H](O)[C@H](O)[C@@H](O)CN1CC(F)(F)CCCOCc1ccc(-c2ccccc2)cc1; tested on = GBA1 R534H; test = inhibitor, 4MU-β-D-glucopyranoside; setting = added: 4MU-β-D-glucopyranoside; endpoint = IC50; result = 130 nM
